Results collected from several papers.
Protocols differ between the studies behind these lines. Values joined by “and” are separate records of one study, mostly repeats; a detail may differ.
Sequence of UniProt P33261 (whole entry, looked up): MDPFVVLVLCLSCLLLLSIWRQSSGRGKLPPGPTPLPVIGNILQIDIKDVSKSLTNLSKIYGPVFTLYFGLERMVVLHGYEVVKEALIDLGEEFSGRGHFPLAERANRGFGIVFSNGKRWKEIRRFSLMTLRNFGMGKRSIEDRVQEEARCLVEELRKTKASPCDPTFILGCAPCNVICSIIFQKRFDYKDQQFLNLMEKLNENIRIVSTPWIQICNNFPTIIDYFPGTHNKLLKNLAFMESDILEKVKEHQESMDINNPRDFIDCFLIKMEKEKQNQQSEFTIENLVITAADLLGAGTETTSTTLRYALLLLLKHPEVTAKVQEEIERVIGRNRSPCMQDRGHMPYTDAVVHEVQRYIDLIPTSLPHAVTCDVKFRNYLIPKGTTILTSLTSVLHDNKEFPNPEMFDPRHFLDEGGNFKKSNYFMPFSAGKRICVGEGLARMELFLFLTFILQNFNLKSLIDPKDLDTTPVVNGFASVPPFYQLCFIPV

SMILES	target or system	test	test system	setting	scale	endpoint	result
Nc1nc(-c2ccc(Cl)cc2)nc2[nH]nc(Nc3ccc(F)cc3)c12	HeLa Ohio	–	–	72 h	–	CC50	> 141 µM
CNC(=O)C1CCCN(C(=O)C2CC3CCC2N3C(=O)[C@@H]2C[C@@H](O)CN2C(=O)NCc2cccc(Cl)c2F)C1 (mixture of isomers)	Cytochrome P450 2C19 (CYP2C19, Homo sapiens, UniProt P33261)	enzyme activity, inhibitor, time-dependent inhibition	–	0.206 µM, preincubated with NADPH	reference: negative control	remaining activity	116%
CN(C)c1ccc(Nc2n[nH]c3nc(-c4ccccc4)nc(N)c23)cc1	HeLa Ohio	–	–	72 h	–	CC50	> 145 µM
CN(Cc1ccccc1)C(=O)CN1CCN(CC(=O)[O-])CCN(Cc2cccc(C(=O)[O-])n2)CC1.[44Sc+3]	–	–	mouse, muscle	intravenous, 1 h	–	tracer uptake	0.2 %ID/g
Nc1nc(-c2ccccc2F)nc2[nH]nc(Nc3ccc(F)cc3)c12	HeLa Ohio	–	–	72 h	–	CC50	> 148 µM
OC(Cc1cc(-c2ccc(C(O)C(F)(F)F)s2)sc1-c1ccc(-c2sc(-c3ccc(C(O)C(F)(F)F)s3)cc2CC(O)C(F)(F)F)s1)C(F)(F)F (stereo not drawn)	primary human fetal neurons	LC-MS/MS	–	4 µM, 15 min, replicate 1	–	amount in cell extract	0.47 nmol and 0.63 nmol and 0.36 nmol
O=C([O-])CN1CCN(CC(=O)[O-])CCN(Cc2cccc(C(=O)[O-])n2)CC1.[18F-].[Sc+3]	–	–	mouse, stomach	intravenous, 1 h	–	tracer uptake	0.09 %ID/g
CCN(CC)CC#CCNc1ccnc2cc(Cl)ccc12	Salmonella typhimurium	mini-Ames test	TA100	62.5 µg/well, without S9	–	revertants per well	23
CC(C)OCCOCc1ccc(OCC(O)CN(N=O)C(C)C)cc1 (stereo not drawn)	Escherichia coli	Ames test	WP2 uvrA	158 µg/plate, without metabolic activation	reference: solvent control	revertant fold increase	1.1 fold

Excerpt of the above:
SMILES	target or system	test	test system	setting	scale	endpoint	result
CN(C)c1ccc(Nc2n[nH]c3nc(-c4ccccc4)nc(N)c23)cc1	HeLa Ohio	–	–	72 h	–	CC50	> 145 µM
